Assay results collected from several papers.
± gives the spread as reported.

The Cmax of CCCC[C@H](NC(C)=O)C(=O)N[C@H]1CCC(=O)NC[C@@H](C(=O)N[C@@H](Cc2c[nH]c3ccccc23)C(N)=O)NC(=O)[C@H](CCCNC(=N)N)NC(=O)[C@@H](Cc2ccccc2)NC(=O)[C@H](Cc2c[nH]cn2)NC1=O is reported as 666 ng/mL (CD Sprague-Dawley rat, male, plasma; subcutaneous, 25.0 mg/kg/day, day 1).
CCCCC1(CCCC)CN(c2ccccc2)c2cc(SC)c(OCC(=O)N[C@@H](C(=O)NCC(=O)O)c3ccccc3)cc2S(=O)(=O)C1 has an AUC(0-t) of 3.02 ng·h/mL (human, plasma; oral, 20 mg once daily, day 1, geometric mean).
For CCC1=C(C)CN(C(=O)NCCc2ccc(S(=O)(=O)NC(=O)N[C@H]3CC[C@H](C)CC3)cc2)C1=O, the EC20 was greater than 800 µM (cytochrome c release, ELISA; BALB/cByJ female mouse liver mitochondria; 30 min; baseline: alamethicin maximal release).
O=C(O)c1cccc(CN2CN(C3CCCCC3)C3(CCN(CCCC(=O)c4ccccc4)CC3)C2=O)c1 gave a rearing activity of 3 counts (rat Sprague Dawley female; 1000 mg/kg/day, 4 to 8 min after start, second session).
For O=C(/C=C/c1ccc(O)c(O)c1)c1ccc(O)cc1O, the EC20 was greater than 200 µM (mitochondrial swelling; BALB/cByJ female mouse liver mitochondria; 30 min, together with: succinate + rotenone; baseline: CaCl2 maximal swelling).
The end-of-infusion concentration of Cc1cc(Nc2cc(N3CCN(C)CC3)nc(Sc3ccc(NC(=O)C4CC4)cc3)n2)[nH]n1 is reported as 0.274 to 7.63 µM (patients, plasma; continuous intravenous infusion, 8 to 96 mg/m2/h, 24 h, mean across doses).
CC[C@]1(O)C[C@@H]2CN(CCc3c([nH]c4ccccc34)[C@@](C(=O)OC)(c3cc4c(cc3OC)N(C)[C@H]3[C@@](O)(C(=O)OC)[C@H](OC(C)=O)[C@]5(CC)C=CCN6CC[C@]43[C@@H]65)C2)C1 has an EC20 of greater than 400 µM (cytochrome c release, ELISA; BALB/cByJ female mouse liver mitochondria; 30 min; baseline: alamethicin maximal release).
CCCCNC(=O)CN1CCN(CC(=O)[O-])CCN(CC(=O)[O-])CCN(CC(=O)[O-])CC1.[67Ga+3]: “intact radiolabelled complex” 96.1 ± 0.6% (RP-TLC; murine plasma; 3 h, 37 °C, 5% CO2).
The Tmax of Cc1nc2cccc(OCC(C)(C)C(=O)NC(C)C)c2c(N)c1C(=O)O is reported as 1.5 h (Sprague-Dawley rat both sexes, plasma; dietary, 30 mg/kg/day, day 90).
CNCc1ccc(-c2[nH]c3cc(F)cc4c3c2CCNC4=O)cc1 gave an AUC(0-24 h) of 6000 ng·h/mL (human, plasma; oral, 300 mg, fed, high-fat meal, median).
COc1cccc2c1C(=O)c1c(O)c3c(c(O)c1C2=O)C[C@@](O)(C(=O)CO)C[C@@H]3O[C@H]1C[C@H](N)[C@H](O)[C@H](C)O1 gave a Tmax of 2 h (mouse, E0771 tumour-bearing, tumor; intravenous, 92 µmol/kg).
Under “absorption rate constant”, CC(C)(C)NC(=O)[C@H]1CC[C@H]2[C@@H]3CC[C@H]4NC(=O)C=C[C@]4(C)[C@H]3CC[C@]12C is recorded as 0.757 h⁻¹ (albino rabbit, plasma; oral, 1 mg/kg).
O=C(O)COC[C@H]1CC[C@H](COC(=O)N(c2ccccc2)c2ccc(Cl)cc2)CC1: “AUC(0-tau) at steady state” 308 ng·h/mL (human; oral, 400 µg once daily, day 21).
O=c1[nH]c(=O)c(Cc2cccc(C(F)(F)F)c2)c([C@H]2CC[C@H](c3ccccc3)CC2)[nH]1 has a Cmax of 423 ng/mL (human, plasma; oral, 900 mg once daily, day 1, fasted, geometric mean).
COc1cccc(-c2ccc(NC(=O)C3=C(C(=O)O)CCC3)c(F)c2)c1 gave an AUC(0-24h) of 94400 ng·h/mL (human, male, fasted, plasma; oral, 40 mg, single dose, geometric mean).

Repeated from above:
For O=C(/C=C/c1ccc(O)c(O)c1)c1ccc(O)cc1O, the EC20 was greater than 200 µM (mitochondrial swelling; BALB/cByJ female mouse liver mitochondria; 30 min, together with: succinate + rotenone; baseline: CaCl2 maximal swelling).
